Published values collected from several papers.
Each line is one published result; not all experiments were run side by side. ± marks the error that the study gave.
Chain of UniProt P11712 (whole entry, looked up): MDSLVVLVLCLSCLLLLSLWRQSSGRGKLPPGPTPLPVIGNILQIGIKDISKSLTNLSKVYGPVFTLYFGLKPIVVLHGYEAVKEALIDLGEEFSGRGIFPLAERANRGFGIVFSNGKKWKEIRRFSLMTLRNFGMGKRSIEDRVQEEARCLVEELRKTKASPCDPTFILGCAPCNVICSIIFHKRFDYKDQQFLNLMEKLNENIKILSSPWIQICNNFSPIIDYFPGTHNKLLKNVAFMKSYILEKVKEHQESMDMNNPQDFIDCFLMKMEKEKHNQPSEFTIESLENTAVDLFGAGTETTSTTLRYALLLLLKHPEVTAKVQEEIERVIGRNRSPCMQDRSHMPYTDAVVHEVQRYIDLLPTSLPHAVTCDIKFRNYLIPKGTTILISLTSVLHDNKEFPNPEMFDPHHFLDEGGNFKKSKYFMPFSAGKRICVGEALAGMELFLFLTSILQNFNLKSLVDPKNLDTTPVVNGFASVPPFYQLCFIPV

O=C1C2CC3CC1CC(C(=O)N1CCN(c4ccc([N+](=O)[O-])c5ncccc45)CC1)(C3)C2 — revertant fold increase (Salmonella typhimurium; Ames test; TA98; 0.13 µg/well, without S9; reference: vehicle): 1.2
CCN(CC)CC#CCNc1ccnc2cc(Cl)ccc12 — revertants per well (Salmonella typhimurium; mini-Ames test; TA1535; 500.0 µg/well, without S9): 3
O=C1NC2(CC2)COc2ncc(F)cc2[C@H]2COCCN2c2ccn3ncc1c3n2 — revertant colonies (Salmonella typhimurium; Ames test; TA97a; 5000 µg/plate, 48 h, added: without S9): 60 ± 9 revertants/plate
COC1CN([C@H]2CC[C@H]([C@@]3(C)Oc4c(Cl)cc(C(=O)NCc5c(SC)cc(C)[nH]c5=O)c(C)c4O3)CC2)C1 — log2 fold change (RNA-seq, measured: AGPAT4 mouse homolog; mouse, HT-1376 xenograft, whole blood; dose not given; reference: vehicle): 0.606
N#C[C@@H]1CC(F)(F)CN1C(=O)CNC(=O)c1ccnc2c(NC(=O)[C@H](CCCCNC(=O)CCOCCOCCOCCOCCOCCOCCNC(=O)CN3CCN(CC(=O)[O-])CCN(CC(=O)[O-])CCN(CC(=O)[O-])CC3)NC(=O)CCCc3ccc(I)cc3)cccc12.[177Lu+3] — tracer uptake (U-87 MG tumour model; host not given, heart; 96 h, tumour-bearing): 0.09 %ID/g
CC(C)OCCOCc1ccc(OCC(O)CN(N=O)C(C)C)cc1 (stereo not shown) — revertant fold increase (Salmonella typhimurium; Ames test; TA100; 500 µg/plate, 30 % hamster S9; reference: solvent control): 2 fold
Cc1ncsc1-c1ccc(C(C)NC(=O)C2CC(O)CN2C(=O)C(NC(=O)CCCCCCCCCCN2CCCC(Nc3ncc(Cl)c(Nc4ccccc4S(=O)(=O)C(C)C)n3)C2)C(C)(C)C)cc1 (stereo not shown) — log2 fold change (22Rv1; RNA-seq, measured: ZNF558 mRNA; concentration not given; reference: DMSO): -1.12
Nc1ncc(-c2cc(-c3cnn(CC(F)(F)F)c3)ncc2F)nc1C(=O)NC1CNCC(F)C1 (stereo not shown) — remaining binding (TNNI3K; KINOMEscan; 1 µM; reference: DMSO control): 92%
C=CC(=O)Nc1cccc(Cn2ncc3cnc(Nc4cnn(CCOC)c4)nc32)c1 — percent of control (YANK2 human; binding, KINOMEscan; 100 nM; lower = stronger binding): 100%
CNC(=O)C1CCCN(C(=O)C2CC3CCC2N3C(=O)[C@@H]2C[C@@H](O)CN2C(=O)NCc2cccc(Cl)c2F)C1 (mixture of isomers) — IC50 (Cytochrome P450 2C9 (CYP2C9, Homo sapiens, UniProt P11712); enzyme activity, inhibitor; human, liver microsomes): > 50 µM
C=C(NC(=O)c1csc(-c2nc3c(cc2O)-c2nc(cs2)C(=O)NC(C(C)O)C(=O)NC(=C(C)OC)c2nc(cs2)C(=O)NC2c4nc(cs4)C(=O)NC(COC(=O)c4c5c6c(cccc6n4O)COC(=O)C(OC4CC(C)(O)C(N(C)C)C(C)O4)C2OC5)c2nc-3cs2)n1)C(N)=O (stereo not shown) — AUC(0-inf) (male cynomolgus monkey, plasma; intravenous, 3 mg/kg, single dose, infusion): 20900 ng·h/mL
COc1cccc(OC)c1-c1cc(C(=O)NC2(C(=O)O)C3CC4CC(C3)CC2C4)nn1-c1ccc(C(=O)N(C)CCCN(C)C(=O)[C@H](CCCCNC(=O)[C@H](CC(C)C)NC(=O)C2OC2C(=O)O)NC(=O)CN2CCN(CC(=O)[O-])CCN(CC(=O)[O-])CCN(CC(=O)[O-])CC2)cc1C(C)C.[177Lu+3] (mixture of isomers) — tracer uptake (HT-29 tumour model; host not given, pancreas; 72 h, tumour-bearing): 0.07 %ID/g
N#C[C@@H]1CC(F)(F)CN1C(=O)CNC(=O)c1ccnc2c(NC(=O)CCOCCOCCOCCOCCOCCOCCNC(=O)[C@H](CCCCNC(=O)CN3CCN(CC(=O)[O-])CCN(CC(=O)[O-])CCN(CC(=O)[O-])CC3)NC(=O)CCCc3ccc(I)cc3)cccc12.[177Lu+3] — tracer uptake (U-87 MG tumour model; host not given, tumour; 24 h, tumour-bearing): 3.5 %ID/g

Excerpt of the above:
O=C1C2CC3CC1CC(C(=O)N1CCN(c4ccc([N+](=O)[O-])c5ncccc45)CC1)(C3)C2 — revertant fold increase (Salmonella typhimurium; Ames test; TA98; 0.13 µg/well, without S9; reference: vehicle): 1.2
C=C(NC(=O)c1csc(-c2nc3c(cc2O)-c2nc(cs2)C(=O)NC(C(C)O)C(=O)NC(=C(C)OC)c2nc(cs2)C(=O)NC2c4nc(cs4)C(=O)NC(COC(=O)c4c5c6c(cccc6n4O)COC(=O)C(OC4CC(C)(O)C(N(C)C)C(C)O4)C2OC5)c2nc-3cs2)n1)C(N)=O (stereo not shown) — AUC(0-inf) (male cynomolgus monkey, plasma; intravenous, 3 mg/kg, single dose, infusion): 20900 ng·h/mL
